Experimental data from different studies.
Each numbered part is a random draw from the data of one study; scales do not carry over between parts.

Block 1
Target: Fragile X messenger ribonucleoprotein 1, C-terminal low-complexity region (Fmr1, Mus musculus, UniProt P35922)
Method: RNA Bind-n-Seq
Molecule type: RNA
Medium: in vitro
Tested at: 200 nM
Setting: whole 134-nt RNA, ends assumed
With: 150 mM KCl
Relative to: input library
Reading: higher = stronger binding
Strand | log2 enrichment
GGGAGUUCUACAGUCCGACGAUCUUUCAAAGCCAAAGGGCCUUGUGACGCCCCUCUUGCCCACCUCCCUCCACACCGUGUCCUCCCCUAUAUGACAAUCAAUGUGACCUCUCUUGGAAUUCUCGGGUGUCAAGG | 0.135
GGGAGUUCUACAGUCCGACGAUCCAAGUCCUGUGCUACACAUCGUAUGUACCGAAUCGGGAAAAAGGGUUUGGGAGGGAAAGUAUUAUGUUACGCCGUUCGGAUCUGCACUUCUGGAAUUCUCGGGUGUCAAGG | 0.93
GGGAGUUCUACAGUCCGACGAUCAAGUCCUGUGCUACACAUCGUAUGUACCGAAUCGGGAGGGUUUUUUUGGGUUUGGGAAAGUAUUAUGUUACGCCGUUCGGAUCUGCACUUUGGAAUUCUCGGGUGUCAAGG | 0.598
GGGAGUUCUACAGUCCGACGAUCUGGCCCUGGUGGCAUGCGGGGAGGAAGAGGUGGCCUCAUGGAUCGUGGUGUUCCCGGUGGAAUGUUCAGAGGUGGCCGUGGUGGAGACAGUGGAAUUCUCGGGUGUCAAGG | 0.111
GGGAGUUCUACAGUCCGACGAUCACCAUGCAGGUGGGCAUCUUUGGGAAGUGGGGCAAGGGGGGGAUAGGGAGGGGAAAAACACUUUGGGAACAGGUGGUCCCAGGUCGUUUCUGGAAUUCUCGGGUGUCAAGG | 0.834
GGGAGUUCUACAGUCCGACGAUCCCUGUGCUACACAUCGUAUGUACCGAAUCGGGGAGGGGUUUUUUUGGGGUUUUUUUGGGGAAAGUAUUAUGUUACGCCGUUCGGAUCUGCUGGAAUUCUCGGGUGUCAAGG | 0.463
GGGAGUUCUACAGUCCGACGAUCUAACUUUAGAGGAGGAUCUGAUGGAUAUGGCAGUGGACGUGGAUUUGGGGAUGGCUAUAAUGGGUAUGGAGAAGGACCUGGAGGUGGCAAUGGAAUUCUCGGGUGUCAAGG | 0.246
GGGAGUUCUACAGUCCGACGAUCGCAGGAAGUAAAAACAAAUGGAAAUGCUUCGGACAGUGGCAGGGGUGGGGGUUGCUAAGGAAAGGGUGGGAUGGGAGUGGGUAAAGAGUUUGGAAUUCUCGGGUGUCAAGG | 0.111
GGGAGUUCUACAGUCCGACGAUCAAGUCCUGUGCUACACAUCGUAUGUACCGAAUCGGGGAAAGGAAAGGGGAAAGGGGAAAGUAUUAUGUUACGCCGUUCGGAUCUGCACUUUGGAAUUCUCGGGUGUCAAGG | 0.252
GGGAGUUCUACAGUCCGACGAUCGCAGGAAGUAAAAACAAAUGGAAAUGCUUCGGAUAGUGGCAGGGGUGGGGGUUGCUAAGGAAAGGGUGGGAUGGGAGUGGGUAAUGAGUUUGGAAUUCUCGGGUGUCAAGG | 0.293

Block 2
Target: Interferon regulatory factor 1, DNA-binding domain (IRF1, Homo sapiens, UniProt P10914, residues 1-114)
Method: protein-binding microarray
Molecule type: hairpin DNA
Medium: in vitro
Tested at: not given
Setting: whole hairpin DNA, median over replicate spots
Relative to: not given
Reading: higher = stronger binding
Construct (chain): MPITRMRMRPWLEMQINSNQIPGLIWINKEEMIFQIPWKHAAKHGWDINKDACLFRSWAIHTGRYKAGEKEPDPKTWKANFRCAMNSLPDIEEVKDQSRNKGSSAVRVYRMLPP
Strand | median fluorescence [a.u.]
GAGGCCCGACGGTGAAACGCCTCCTGGCGTTTCACCGTCGGGCCTCACAC (5mC at 10) | 558
GAGGCCCGACGGTGAAACGCCTCCTGGCGTTTCACCGTCGGGCCTCACAC (5mC at 10 36) | 557
GAGGCCCGAAAGCCGAACGCCTCCTGGCGTTCGGCTTTCGGGCCTCACAC (5mC at 14) | 513
GAGGCCCGAAAGCGAAACGCCTCCTGGCGTTTCGCTTTCGGGCCTCACAC (5mC at 33) | 1160
GAGGCCCGAAAGCGAACGGCCTCCTGGCCGTTCGCTTTCGGGCCTCACAC | 534
GAGGCCCGAAAGAGAAACGCCTCCTGGCGTTTCTCTTTCGGGCCTCACAC | 734
GAGGCCGGAAAGCGAAACGCCTCCTGGCGTTTCGCTTTCCGGCCTCACAC | 1390
GAGGCCCGAAAGCGGAACGCCTCCTGGCGTTCCGCTTTCGGGCCTCACAC | 536
GAGGCCCGAAAGTGAAACGCCTCCTGGCGTTTCACTTTCGGGCCTCACAC (5mC at 33) | 1400
GAGGCCCGAAAGTGAATCGCCTCCTGGCGATTCACTTTCGGGCCTCACAC | 529
GAGGCCCGAAAGTCAAACGCCTCCTGGCGTTTGACTTTCGGGCCTCACAC (5mC at 14) | 468
GAGGCCAGAAAGTGAAACGCCTCCTGGCGTTTCACTTTCTGGCCTCACAC | 1710
GAGGCCCGAAAGTCAAACGCCTCCTGGCGTTTGACTTTCGGGCCTCACAC | 527
GAGGCCCGCGAGTGAAACGCCTCCTGGCGTTTCACTCGCGGGCCTCACAC (5mC at 9 37) | 522
GAGGCCCGAAAGCGTAACGCCTCCTGGCGTTACGCTTTCGGGCCTCACAC | 530
GAGGCCCGAAAGTGAGACGCCTCCTGGCGTCTCACTTTCGGGCCTCACAC | 519
GAGGCCCGAAAGCGAATCGCCTCCTGGCGATTCGCTTTCGGGCCTCACAC | 490
GAGGCCCGAAAGCGAAAGGCCTCCTGGCCTTTCGCTTTCGGGCCTCACAC | 1760
GAGGCCCGAAAGCGAAACGCCTCCTGGCGTTTCGCTTTCGGGCCTCACAC (5mC at 7 13 39) | 818
GAGGCCCGAAAGCGAACGGCCTCCTGGCCGTTCGCTTTCGGGCCTCACAC (5mC at 17 29) | 528
GAGGCCCCAAAGTGAAACGCCTCCTGGCGTTTCACTTTGGGGCCTCACAC | 1100
GAGGCCCGAAAGCGCGACGCCTCCTGGCGTCGCGCTTTCGGGCCTCACAC | 553
GAGGCCCGTAAGCGAAACGCCTCCTGGCGTTTCGCTTACGGGCCTCACAC | 528

Block 3
Target: RNA binding protein fox-1 homolog 2, RRM domain, GST-SBP tag (RBFOX2, Homo sapiens, UniProt O43251-10, residues 100-194)
Method: RNA Bind-n-Seq
Molecule type: RNA
Medium: in vitro
Tested at: 365 nM
Setting: natural RNA segment, single round, ends assumed
Relative to: no-protein control
Reading: higher = stronger binding
Target sequence (chain): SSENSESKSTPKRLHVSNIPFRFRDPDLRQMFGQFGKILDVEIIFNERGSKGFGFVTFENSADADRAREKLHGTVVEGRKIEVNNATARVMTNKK
Strand | RBNS enrichment (R)
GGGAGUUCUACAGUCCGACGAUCUGGUAACAGAGCGUCACCACAUAGGAUGUGCCAUUAUCUAGCUAAAGUCAUUCCUUCCUUCCUUCUGUUUCAAGUCAUUGCUGCCAGAUCUGGCUUAAUAAGACUUGGUGUGGAAUUCUCGGGUGCCAA | 0.312
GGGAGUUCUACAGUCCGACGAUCCCUAUAUGCCAGGCACUGUGCUAGGUGCUGGGAAUACCACUGAUGAGACAGACAAGGUCCCUACUCUUGUGGAGUUUACUUCUGGUGGAGGAGACAGAUGAUAAGUAAACUGGAAUUCUCGGGUGCCAA | 0.494
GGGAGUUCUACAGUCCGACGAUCUCCCUGCUUGGACACCUGAGCAUCUGAUUCCUGUCCCCCUGGUGCCAUCUGGCCUGGCUGGAGCCAGGAACAGGAGGGACACUUCCCCAGAAUCCGCAUGUUUCCCCAGUUGGAAUUCUCGGGUGCCAA | 1.61
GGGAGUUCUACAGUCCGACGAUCAAAAAUCAACUCACUGUUCAGUGCUGAGAGGGGAUGUAGGCCCAUGGGCACCUGGCCUCCAGGAGUCGCUGUGUUGGGAGAGCCGGCCACGCCCUUGGCUUUAGAGCUGUUGGAAUUCUCGGGUGCCAA | 0.406
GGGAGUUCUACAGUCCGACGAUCUCAAGGGUAACCAGUGAGGCUAUGAAAUUGCCAGUGAAUUAAGACCAGGGCUAGAGUCAACAGUCCAGAACCCCUAUCCGUAUGAACAGGGGCCCGUUUCUGGUUGAAAUUGGAAUUCUCGGGUGCCAA | 0.611
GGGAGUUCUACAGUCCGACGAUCAGAGCAGGAUCAGAUUUCCACAUUGGACAUAAAUAGCAUAUUCAGCAAAAAGGUCUGAAAAGCAAGGGAAUACCAUUAUUUUCGGAUUAGCGGUUUAUUAAGCUCUUCUAUGGAAUUCUCGGGUGCCAA | 0.494
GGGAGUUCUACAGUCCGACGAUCUCUCUUGAUGUCCCUGGAGAGCUGAGGUCGAGACCCCAUUCAUGCAGGAGGAGGAAGAAGGAAGUGUCCAGUCACAUCCUUAGUUCUCAGAGGACUUUAUUUUCCUCUCUUGGAAUUCUCGGGUGCCAA | 0.385
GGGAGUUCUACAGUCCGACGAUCGAAAACAGUGGCAAGGGCUGUUCUGUUUUCUGGUACCUGAGUGAAACUCAGAAGAAAAGCAGGCUUAGCUAAGAGAUUUUCACUAUUAACCUGUUUUUAUUAGAUCAGCGUGGAAUUCUCGGGUGCCAA | 0.479
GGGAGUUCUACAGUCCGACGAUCAAGCAAACCAGUUAAUCUCAGUGUAAUUUCAUUCAGCUUUUCAUGUGCUUUGUAUUCAAUCAGAAUAAGCUUAGUCAACCUGGCAGGUAAAUAUUGGUUCAAUUUUUGUUUGGAAUUCUCGGGUGCCAA | 0.516
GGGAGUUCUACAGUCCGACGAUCUGAAGUUUGUCCUAGUUUACAUCUUAGAGAGGGGAGUAUACUUGUGUUUGUUUCAUGUGCCUGAAUAUCUUAAGCCACUUUCUGCAAAAGCUGUUUCUUACAGAUGAAGUUGGAAUUCUCGGGUGCCAA | 1.27
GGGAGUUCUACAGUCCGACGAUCCCUGUCCACAGCCCUAGCUGCCAGCAAUGCUGUCCUCACAGAGGCAUAGUCGCCCCCAGCUGGGUUGUGCUCCACUGUGACGGUGGCCCGGGGGGAGGAUGCCAGCAGCCUGGAAUUCUCGGGUGCCAA | 0.23
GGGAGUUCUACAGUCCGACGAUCCCAGUCUUAACGUUUAUCUUUGAAUGCUAUUUAUUCAAAUAGCGUGAGGAGUUAGAAGAUGAGGUGUCUAUGAUGUUGAUGUAAUGUAUACGUAGGCGAUAUAUGUAAGUUGGAAUUCUCGGGUGCCAA | 0.487

Block 4
Target: Sal-like protein 4, full length isoform A (SALL4, Homo sapiens, UniProt Q9UJQ4, residues 1-1053)
Chain of UniProt Q9UJQ4 (whole entry, looked up): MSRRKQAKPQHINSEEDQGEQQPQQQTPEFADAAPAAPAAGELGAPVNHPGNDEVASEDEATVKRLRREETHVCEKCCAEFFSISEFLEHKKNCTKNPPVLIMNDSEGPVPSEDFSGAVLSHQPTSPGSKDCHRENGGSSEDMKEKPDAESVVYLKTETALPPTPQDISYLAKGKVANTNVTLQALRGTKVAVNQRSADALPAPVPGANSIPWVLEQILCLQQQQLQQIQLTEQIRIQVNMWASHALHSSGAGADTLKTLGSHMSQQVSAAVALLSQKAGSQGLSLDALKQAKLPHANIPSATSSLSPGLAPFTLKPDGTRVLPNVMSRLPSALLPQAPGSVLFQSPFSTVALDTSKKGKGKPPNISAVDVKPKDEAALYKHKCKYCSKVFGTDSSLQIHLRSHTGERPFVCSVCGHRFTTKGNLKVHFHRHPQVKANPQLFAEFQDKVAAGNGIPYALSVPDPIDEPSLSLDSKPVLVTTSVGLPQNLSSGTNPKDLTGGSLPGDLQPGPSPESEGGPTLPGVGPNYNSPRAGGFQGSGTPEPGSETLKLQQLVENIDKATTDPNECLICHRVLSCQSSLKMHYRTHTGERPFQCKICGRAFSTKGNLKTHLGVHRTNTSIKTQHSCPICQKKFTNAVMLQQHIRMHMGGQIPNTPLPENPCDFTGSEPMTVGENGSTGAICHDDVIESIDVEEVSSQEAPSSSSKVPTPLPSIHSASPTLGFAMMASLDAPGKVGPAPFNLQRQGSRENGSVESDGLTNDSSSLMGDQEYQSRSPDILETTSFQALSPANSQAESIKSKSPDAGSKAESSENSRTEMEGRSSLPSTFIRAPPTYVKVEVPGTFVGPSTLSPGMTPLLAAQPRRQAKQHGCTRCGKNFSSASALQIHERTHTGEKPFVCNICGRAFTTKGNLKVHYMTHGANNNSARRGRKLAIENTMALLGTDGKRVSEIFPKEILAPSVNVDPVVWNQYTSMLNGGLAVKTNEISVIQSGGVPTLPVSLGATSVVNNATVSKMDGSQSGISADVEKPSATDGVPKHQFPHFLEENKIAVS
Method: universal PBM
Molecule type: double-stranded DNA, one strand shown
Medium: in vitro
Tested at: 600 nM
Setting: 8-mer, flanks averaged, mean of replicates
Reading: higher = stronger binding
Strand | E-score
GGAGCTTA | -0.0334
AATGACCG | -0.116
ACATGCAC | 0.0744
AGTGCAGC | -0.169
GAATGGTA | 0.16
TAACTGAA | 0.137
ATTACAAT | 0.322
AACTAGCA | 0.0361
AGTCGGCA | -0.134
AATGCTAT | 0.249
CCACGACA | -0.156
ACGTGCAC | -0.148
ACTCAGTG | -0.0452
AACTTCTT | 0.0833
CAACTGAA | 0.036
TACTTACA | 0.195
ATTACGGC | -0.0649
GAAATCGC | -0.14
CCGTACAA | 0.0639

For quick reference, copied from above (block 2):
Strand | median fluorescence [a.u.]
GAGGCCCGAAAGCGGAACGCCTCCTGGCGTTCCGCTTTCGGGCCTCACAC | 536
GAGGCCCGAAAGTGAAACGCCTCCTGGCGTTTCACTTTCGGGCCTCACAC (5mC at 33) | 1400
GAGGCCCGAAAGTGAATCGCCTCCTGGCGATTCACTTTCGGGCCTCACAC | 529
GAGGCCCGAAAGTCAAACGCCTCCTGGCGTTTGACTTTCGGGCCTCACAC (5mC at 14) | 468
